Published values collected from several papers.
Compare with care: the assays were run in different laboratories. “And” joins repeats or separate records; there may be more than shown.
Target: Focal adhesion kinase 1 (PTK2, Homo sapiens, UniProt Q05397)

N[C@H]1CC[C@H](Nc2nccc(-c3cccnc3Oc3ccc(NC(=O)NC4CC4)c4ccccc34)n2)CC1 — log2 LFQ intensity (kinobead competition pulldown; HEK293/HCT116 lysate mixture; 10 µM, 1 h, 4 °C; lower = stronger competition): 30.8 and 30.7 and 31
Nc1ncc2c(n1)-c1c([nH]c3ccc(C4=CCOCC4)cc13)CCC2 — remaining binding (binding, competition with immobilised ligand; 1 µM): 100%
CNS(=O)(=O)Nc1nccc(Cc2c(C)c3ccc(Oc4ncccc4F)cc3oc2=O)c1F — remaining binding (binding, competition with immobilised ligand; 10 µM): 100%
C[C@H]1CN(C(=O)c2cn(-c3ccnc(N)n3)c3cc(C#CC4(O)CCCCC4)ccc23)CCN1 — inhibition (enzyme activity, inhibitor, FRET; 1 µM): 2%
O=C=[N][Ru-4]123([n]4c5ccc(O)cc5c5c6c(c7cc(F)c[n+]1c7c54)C(=O)NC6=O)[S+]1CC[S+]2CC[S+]3CC1 (stereo not drawn) — remaining activity (enzyme activity; 100 nM, human enzyme, added: 10 µM ATP; baseline: untreated): 98%
COc1ccc(NC(=O)Nc2ccc3c(c2)C(=O)N(C(C)CO)CC(C)C(CN(C)Cc2ccc4c(c2)OCO4)O3)cc1 (stereo not drawn) — remaining binding (binding, competition with immobilised ligand; 10 µM): 100%
CCn1cc(C(=O)O)c(=O)c2c(N)c(F)c(NC3CCCCC3)cc21 — inhibition (kinase activity; 0.1 µM, added: ATP at Km): -2.3%
CN1CCN(Cc2ccc(NC(=O)c3cccc(C#Cc4cnc(N)c5ncccc45)c3)cc2C(F)(F)F)CC1 — remaining binding (cell-free assay, competition with immobilised ligand; 0.5 µM): 100%
C=C1CCCCCCCCCC(CO)C1=O (stereo not drawn) — remaining binding (cell-free assay, competition with immobilised ligand; 10 µM): 69%
C=CC(=O)N1CCc2ccc(-n3c(=O)ccc4cnc5ccc(-c6cnn(C)c6)cc5c43)cc21 — remaining binding (KINOMEscan; 1 µM; baseline: DMSO control): 95%
CN1CC[C@@H](COc2cnc(C#N)cc2-c2ccn3nc(NC(=O)C4CC4)cc3c2)C1 — inhibition (enzyme activity, inhibitor; 1 µM): -3%
O=C(Cc1ccc(OCc2ccccc2)cc1)NC1(C(=O)O)CCN(C(=O)c2ccc(-c3cccc(Cl)c3)cc2)CC1 — activity vs control (enzyme activity, inhibitor; 10 µM): 98%
Cc1cccc(O[C@H]2CCC[C@@H](C(C)CNCc3ccncc3)C2)c1 (relative stereo) — inhibition (enzyme activity, inhibitor; 10 µM): -4%
COC(=O)[C@@]1(C)C=C(C(=O)Nc2cccc(C(=O)Nc3ccc(Nc4nccc(-c5cccnc5)n4)c(C)c3)c2)C(=O)CC1 — remaining activity (enzyme activity, inhibitor, radiometric; 1 µM): 65%
C=CC(=O)Nc1cccc(-c2cnc3[nH]cc(C(=O)NC(C)(C)C)c3n2)c1 — inhibition (kinase activity; 0.1 µM): 4% and 1%
NC(=O)[C@@H](O)C[C@H]1CCc2sc3ncnc(O[C@H]4CC[C@H](N5CCOCC5)CC4)c3c21 — inhibition (enzyme activity, inhibitor; 10 µM): 15%
CCN1CCN(Cc2ccc(C(=O)Nc3ccc(C)c(NCc4cnc5[nH]ccc5c4OC)c3)cc2C(F)(F)F)CC1 — remaining binding (binding, competition with immobilised ligand; 1 µM): 98%
C=CC(=O)N1Cc2nc(-c3cc(-c4cc(Cl)cnc4Cl)c(F)cc3F)n(-c3ccncn3)c2C1 — inhibition (cell-free assay, inhibitor; 1 µM): 10.4%
COc1c(OCCCN2CCOCC2)ccc2c1N=C(NC(=O)c1cnc(N)nc1)N1CCN=C21 — remaining activity (kinase activity, inhibitor; 1 µM; baseline: untreated control): 82%
COc1c(Cl)cccc1Nc1c(-c2ccncc2C#C[C@@]2(C)CCCN2C(=O)/C=C/CN(C)C)[nH]c2c1C(=O)NCC2 — remaining binding (binding, competition with immobilised ligand; 3 µM): 95%
CNC(=O)C[C@H](Cc1ccc(C#N)cc1)NC(=O)c1cc(-c2ccc(CN[C@H](C)c3ccc(C)cc3)o2)ccc1Cl — activity vs control (enzyme activity, inhibitor; 1 µM): 105%

Excerpt of the above:
O=C(Cc1ccc(OCc2ccccc2)cc1)NC1(C(=O)O)CCN(C(=O)c2ccc(-c3cccc(Cl)c3)cc2)CC1 — activity vs control (enzyme activity, inhibitor; 10 µM): 98%
Cc1cccc(O[C@H]2CCC[C@@H](C(C)CNCc3ccncc3)C2)c1 (relative stereo) — inhibition (enzyme activity, inhibitor; 10 µM): -4%
COC(=O)[C@@]1(C)C=C(C(=O)Nc2cccc(C(=O)Nc3ccc(Nc4nccc(-c5cccnc5)n4)c(C)c3)c2)C(=O)CC1 — remaining activity (enzyme activity, inhibitor, radiometric; 1 µM): 65%
